Published values collected from several papers.
Each line is one published result; not all experiments were run side by side. ± gives the spread as reported.

`[2H]C1(C(=O)Nc2ccc3cc(C(=O)O)ccc3c2)CCN(S(=O)(=O)c2ccc(C)cc2C)CC1` gave a half-life of 0.533 h (rat liver microsomes; 60 min, 37 °C).
For `O=C(NC1CCCCC1)Oc1ccc(O)c(-c2ccccc2)c1`, the half-life was 15.8 ± 0.45 h (80% rat plasma; pH 7.4, 37 °C).
With `CNCCNC(=O)c1cc2c([nH]c3ccccc32)c(-c2cc(Cl)c(Cl)c(Cl)c2)n1` the half-life was 1.33 h (human liver microsomes).
The half-life of `COc1ccc2c(c1)c(CC(=O)O[C@H]1C=C[C@@]34CCN(C)Cc5ccc(OC)c(c53)O[C@H]4C1)c(C)n2C(=O)c1ccc(Cl)cc1` is reported as over 12 h (human plasma 80% in PBS; pH 7.4, 37 °C).
With `C#CCCCN1C(=O)[C@@]2(CN2[S@@+]([O-])C(C)(C)C)c2ccccc21` (some centres unmarked) the half-life was 0.843 h (glutathione).
For `CC(C)(C)N1CCC(NC(=O)c2ccc(C(F)(F)F)cc2Cl)CC1`, the half-life was 9.05 h (human liver microsomes).
`CNCCNC(=O)c1cc2c([nH]c3c(C)cccc32)c(-c2ccc(Cl)c(Cl)c2)n1` has a half-life of 3.73 h (human liver microsomes).
`Cc1cc(OCCCc2c(C(=O)Nc3cccc(C(=O)O)c3)[nH]c3c(-c4c(C)nn(C)c4C)c(Cl)ccc23)cc(C)c1Cl` has a half-life of over 0.5 h (rat liver microsomes).
